Measurements from different studies.
Numbered parts are unrelated; each lists some results of a single study. Substitutions count along the parent as printed.

Study 1 — technique: protein-binding microarray; molecule type: double-stranded DNA, one strand shown; medium: in vitro; tested at: not given; reading: higher = stronger binding
Target: Max dimerization protein 1, bHLH-zipper, MAX partner unstated (MXD1, Homo sapiens, UniProt Q05195, residues 56-136)
Setting: k-mer, scored over probes, only values ≥0.25
Construct (chain): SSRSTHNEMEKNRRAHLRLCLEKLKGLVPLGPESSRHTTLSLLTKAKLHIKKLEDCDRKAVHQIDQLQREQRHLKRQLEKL
Oligonucleotide | E-score
ACGTGTAT | 0.414
CGTGCTAC | 0.299
ACGTGGTG | 0.411
GCGTGAGA | 0.278
ACATGATG | 0.282
AGACACGC | 0.366
CGTGGGAG | 0.326

Study 2 — target: CCNB1, cyclin fold, Cln2 fusion (human); technique: yeast growth competition, sequencing; medium: yeast; setting: weak parent motif; reference: not given; reading: higher = stronger binding
Starting sequence: SAMHD1 docking peptide (human); ASKSRVQLFKDDP
Substitution | normalised enrichment score
ASKVRVQLFKDDP [S4V] | 2.82
ASKSRVQLWKDDP [F9W] | 0.439
ASKSRVQCFKDDP [L8C] | 0.264
ASKSRVQLFMDDP [K10M] | 0.264
ASKNRVQLFKDDP [S4N] | 0.489
ASKSRVQLFKDLP [D12L] | -0.107
ASKSRVDLFKDDP [Q7D] | -0.268
ASKSRVQLFKNDP [D11N] | 0.229
ASKSVVQLFKDDP [R5V] | 0.287
ASKSRVVLFKDDP [Q7V] | 0.175
ASKSRPQLFKDDP [V6P] | -0.312
ASKSRVLLFKDDP [Q7L] | 0.12

Study 3 — technique: protein-binding microarray; molecule type: double-stranded DNA, one strand shown; medium: in vitro; tested at: 940 nM top; setting: 60-bp whole probe; together with: salmon DNA 0.4 mg/ml; reference: random background probes; reading: higher = stronger binding; all sequences stand within: GCCTAGCAC … GTCTTGATTCGCTTGACGCTGCTG
Target: Interferon regulatory factor 5, full length, phosphomimetic (IRF5, Homo sapiens, UniProt Q13568-2, residues 1-514, S451D/S453D/S456D/S462D)
Oligonucleotide | fitted relative affinity
GACGATTTAAGTTCCGAGACGTGCTAG | 0.49 z-score
GACGGTATCGACTACCGGGACGTGCTA | 5.96 z-score
TTTGATCTCAGTTTCGATTAGTGCTAG | 8.41 z-score
GACGGTTTCTGTTTCGGGACGTGCTAG | 7.14 z-score
TGAGATATCGGGTATCGATTAGTGCTA | 3.31 z-score
GCCCATCTCTGCTCCTTCTGGTGCTAG | 0.733 z-score
GACGGACTGAGACTGGGGACGTGCTAG | -0.287 z-score
ATAGGACTGGGTTTCGGTTAGTGCTAG | 6.68 z-score
GACGAGATCAGTTTCGAGACGTGCTAG | 4.78 z-score
TTACGTATCGGTATCGGTTAGTGCTAG | 9.06 z-score
AATATTATAACACTCTTCTTGTGCTAG | 0.772 z-score
GACGAGATCGGGTATCGAGACGTGCTA | 1.35 z-score

Further values, each from its own experiment
Substance | target | assay | system | conditions | scale | measurement | value
PhoQ, residues 284 288 289 292 302 303 TASMAF | PhoP, residues 12 14 15 18 19 TPLRH (Escherichia coli, UniProt P23836) | Sort-seq, refers to: YFP reporter | E. coli | PhoQ-PhoP variant library, together with: 10 µM Mg2+ | reference: high Mg2+ state, higher = stronger signaling | fold induction | 2.28

For quick reference, copied from above (study 2):
Substitution | normalised enrichment score
ASKVRVQLFKDDP [S4V] | 2.82
ASKSRVQLWKDDP [F9W] | 0.439
ASKSRVQCFKDDP [L8C] | 0.264
ASKSRVQLFMDDP [K10M] | 0.264
ASKNRVQLFKDDP [S4N] | 0.489
